Measurements pooled from the literature.
Parts stem from different laboratories: compare values within a part only. Positions count from the first letter of the parent shown.

Study 1
Target: CCND3, cyclin fold, Cln2 fusion (human)
Method: yeast growth competition, sequencing
Medium: yeast
Setting: weak parent motif
Reference: not given
Direction: higher = stronger binding
Measurement: normalised enrichment score
Starting sequence: PKN2 docking peptide (human); DSTVTKLDFDLEP; partner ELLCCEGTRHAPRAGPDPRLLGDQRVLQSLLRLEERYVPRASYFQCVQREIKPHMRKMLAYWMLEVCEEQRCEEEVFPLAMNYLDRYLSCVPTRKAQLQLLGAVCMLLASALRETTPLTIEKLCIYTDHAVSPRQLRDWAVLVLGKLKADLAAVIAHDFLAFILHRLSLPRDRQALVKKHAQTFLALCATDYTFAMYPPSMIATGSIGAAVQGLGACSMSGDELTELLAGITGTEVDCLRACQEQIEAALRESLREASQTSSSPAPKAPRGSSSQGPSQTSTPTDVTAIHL
K6A: -0.152
L7A: -0.0927
S2A: -0.317
D10A: -0.409
D8A: -0.286
D1A: -0.208
P13A: -0.273

Study 2
Target: ABI1, truncated, D143A, DHFR fusion (Arabidopsis thaliana)
Method: DHFR PCA, deep sequencing
Medium: yeast
Setting: methotrexate growth selection, single substitutions
Together with: (+)-ABA 0.032 µM
Reference: wild-type fitted maximum
Direction: higher = stronger binding
Measurement: relative binding score
Starting sequence: PYL1, truncated, DHFR fusion (Arabidopsis thaliana); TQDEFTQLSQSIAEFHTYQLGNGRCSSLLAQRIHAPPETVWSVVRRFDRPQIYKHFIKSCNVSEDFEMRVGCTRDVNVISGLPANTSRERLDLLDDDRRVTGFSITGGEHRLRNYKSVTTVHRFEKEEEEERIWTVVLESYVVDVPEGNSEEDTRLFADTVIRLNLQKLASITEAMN
C60A: -3.01%
N61P: 4.07%
R123S: 49.4%
E129W: 3.07%
V145N: -10.5%
Q19N: 22.9%
R155V: 4.44%
R24I: 4.33%
R98H: 5.07%
T39D: 5.5%
T86R: 10.2%
S26I: -9.47%
P50M: 2.74%
R90C: -16.3%
R99M: 92.8%
K58E: 12%

Study 3
Target: PABPC1L2, full length, GST fusion (mouse, UniProt A0ABA7IW68)
Method: RNAcompete
Form: RNA
Medium: in vitro
Concentration: 20 nM
Setting: 7-mer, probes averaged, single round
Reference: mean of 7-mers
Direction: higher = stronger binding
Measurement: 7-mer Z-score
Target sequence (chain): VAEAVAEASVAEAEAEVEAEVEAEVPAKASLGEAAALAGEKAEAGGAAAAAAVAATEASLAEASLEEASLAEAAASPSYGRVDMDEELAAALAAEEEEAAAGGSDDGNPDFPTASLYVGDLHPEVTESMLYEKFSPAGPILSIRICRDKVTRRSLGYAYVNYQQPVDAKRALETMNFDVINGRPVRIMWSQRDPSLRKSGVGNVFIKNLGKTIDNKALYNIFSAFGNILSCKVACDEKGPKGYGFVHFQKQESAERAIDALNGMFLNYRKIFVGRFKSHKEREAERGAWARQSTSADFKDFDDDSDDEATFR
UGAGGCG: -0.0138
GCAACUG: -0.135
AGGUUAC: -0.0301
ACGACCC: -0.215
ACUCGAA: -0.157
CGUCCAU: -0.289
CGUCUGA: -0.369
CCGUGUG: -0.0591
UAUCGAC: -0.211
UUACGUA: -0.173
CCGAUCC: -0.342
UGGUUGU: -0.416
ACCCUCG: -0.284
AACAACG: 0.811
ACAAGCA: 0.207
GUCCGCC: -0.423

Study 4
Target: TAR DNA-binding protein 43, full length, His tag (TARDBP, Homo sapiens, UniProt Q13148, residues 1-414)
Method: RNA Bind-n-Seq
Form: RNA
Medium: in vitro
Concentration: 20 nM
Setting: 6-mer, flanks averaged, single round
Together with: 150 mM KCl
Reference: input library
Direction: higher = stronger binding
Measurement: 6-mer enrichment (R)
UAAGAC: 0.639
CAUGUA: 0.7
AACCCC: 0.635
GAGGCC: 1.48
UCAUGG: 0.906
UGCCUC: 0.627
CACAAA: 0.674
CAUAUA: 0.594
UGUUAU: 0.704
CACUCC: 0.598
UGCGAA: 0.876
GUCUGG: 1.52
UACGUU: 0.592
GAAACC: 0.663
CACCUU: 0.631
GACAGA: 0.964
GGCGUU: 1.3
UCAGCC: 0.63
GUCUCC: 0.643
UGCUUC: 0.591
UUCCGU: 0.591
GAGCUU: 0.747

Study 5
Target: Histone acetyltransferase KAT6A, winged helix 1, GST fusion (KAT6A, Homo sapiens, UniProt Q92794, residues 1-85)
Method: protein binding microarray
Form: double-stranded DNA, one strand shown
Medium: in vitro
Concentration: not given
Setting: 8-mer, flanks averaged, mean of 2 arrays, mostly near background
Reference: not given
Direction: higher = stronger binding
Measurement: E-score
Construct (chain): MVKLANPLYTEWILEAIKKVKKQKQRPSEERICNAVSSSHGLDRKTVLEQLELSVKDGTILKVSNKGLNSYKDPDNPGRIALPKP
CAAGTCGA: -0.216
ATTGCGGA: 0.131
ACCCGGAA: 0.17
CCTTTTCA: -0.0976
GAATATAC: 0.103
CCTACAAG: -0.248
GGAAGCTA: -0.109
CTCATATA: -0.102
ACCTTATC: 0.00508
AGCGTCTG: 0.135
AATGCCAT: 0.00199
ATTACTTA: -0.0197
GGGAGAGA: -0.135
ACGCGACG: 0.371
ACATGGGT: -0.0769
CACCATCC: -0.155
AAAAACGC: 0.117
CAAGGAGA: -0.234
GATCGGAA: 0.0599
CGTCCAGC: -0.0165

Study 6
Target: CEP164, C-terminal peptide (human)
Method: DHFR complementation, deep sequencing
Medium: yeast
Setting: single substitutions, model-inferred values
Reference: wild type
Direction: higher = weaker binding
Measurement: binding free energy change
Starting sequence: PDZK1, PDZ domain 2 (human); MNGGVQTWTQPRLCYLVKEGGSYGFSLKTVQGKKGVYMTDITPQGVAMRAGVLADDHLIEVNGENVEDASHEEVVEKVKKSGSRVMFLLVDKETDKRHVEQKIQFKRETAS; partner HNRVKVYRF
G3D: -0.0202 kcal/mol
Y37S: 0.58 kcal/mol
G35P: 0.522 kcal/mol
F25T: 1.42 kcal/mol
G51F: 0.636 kcal/mol
S83W: -0.157 kcal/mol
V17I: -0.0917 kcal/mol
E60F: 0.49 kcal/mol
C14P: 1.34 kcal/mol
K33L: 0.181 kcal/mol
I59A: 0.808 kcal/mol
V99I: -0.0928 kcal/mol
V5K: -0.0381 kcal/mol
W8L: -0.0839 kcal/mol
K77M: -0.135 kcal/mol
E93T: -0.109 kcal/mol
L53T: 0.39 kcal/mol
A54L: 0.166 kcal/mol
D40G: 0.786 kcal/mol
Q10T: 0.0185 kcal/mol
V61D: 1.19 kcal/mol
D56Y: 0.415 kcal/mol
R97V: -0.0747 kcal/mol

Study 7
Target: Interferon regulatory factor 7, full length, phosphomimetic (IRF7, Homo sapiens, UniProt Q92985, residues 1-503, S471D/S472D/S475D/S476D/S477D/S483D/S484D/S487D)
Method: protein-binding microarray
Form: double-stranded DNA, one strand shown
Medium: in vitro
Concentration: 2200 nM top
Setting: 60-bp whole probe
Together with: salmon DNA 0.4 mg/ml
Reference: random background probes
Direction: higher = stronger binding
Measurement: fitted relative affinity
Shared flanks, not repeated: GCCTAGCAC … GTCTTGATTCGCTTGACGCTGCTG
Target sequence (chain): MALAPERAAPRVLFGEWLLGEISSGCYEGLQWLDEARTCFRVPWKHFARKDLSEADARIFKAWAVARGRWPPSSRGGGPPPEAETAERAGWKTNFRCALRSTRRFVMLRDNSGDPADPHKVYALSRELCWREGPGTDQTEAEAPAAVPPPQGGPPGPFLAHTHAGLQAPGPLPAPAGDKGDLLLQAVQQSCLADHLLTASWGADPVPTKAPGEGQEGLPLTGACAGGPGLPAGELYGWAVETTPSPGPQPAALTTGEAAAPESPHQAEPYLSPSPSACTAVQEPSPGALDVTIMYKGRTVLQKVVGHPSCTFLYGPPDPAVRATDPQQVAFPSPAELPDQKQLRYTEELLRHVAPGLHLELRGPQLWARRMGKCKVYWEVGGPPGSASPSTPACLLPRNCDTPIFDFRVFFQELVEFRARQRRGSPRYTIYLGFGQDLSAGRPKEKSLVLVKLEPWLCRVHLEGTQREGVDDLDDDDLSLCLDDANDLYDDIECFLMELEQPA
TTAGGTAACGACTATCGGTTAGTGCTA: -0.0578 z-score
TTAGATATCGGGTATCAATTAGTGCTA: 0.142 z-score
GACGGACTGCTACTGATGACGTGCTAG: -0.0987 z-score
GACGGTCTCGGTATCAGGACGTGCTAG: 0.172 z-score
TGGGAGCTCAGGAATCCCACGTGCTAG: -0.797 z-score
GTAGGTATCGGTATCGGTTAGTGCTAG: 0.895 z-score
GACGGTTTCGGGGTTCGGGACGTGCTA: 3.59 z-score
GACGGTATCGGATTTCGGGACGTGCTA: 0.714 z-score
GACGGTTTCCTCCTCCTGACGTGCTAG: 2.52 z-score
GAGCAGAGGCTGATGTATGTGTGCTAG: -0.54 z-score
GACGGTTTCGACTACCGGGACGTGCTA: 3.67 z-score
TCATTTTTGCTTACGATGCAGTGCTAG: 2.32 z-score
GACGGACTGGGTTGCGGGACGTGCTAG: -0.632 z-score
TCATGTTTGTGTGTGTAACTGTGCTAG: 1.54 z-score
TTAGATTTCAGTTCCGCTTAGTGCTAG: 2.48 z-score
GACGATTTCTGTCTCGAGACGTGCTAG: 1.56 z-score

Other studies, line by line
PhoQ, residues 284 288 289 292 302 303 SLKLQV
fold induction (PhoP, residues 12 14 15 18 19 LHSVQ (Escherichia coli, UniProt P23836); Sort-seq, measured: YFP reporter; E. coli; PhoQ-PhoP variant library, together with: 10 µM Mg2+; reference: high Mg2+ state, higher = stronger signaling): 14.2

Some of these lines once more (study 6):
C14P: 1.34 kcal/mol
K33L: 0.181 kcal/mol
I59A: 0.808 kcal/mol
V99I: -0.0928 kcal/mol
V5K: -0.0381 kcal/mol
W8L: -0.0839 kcal/mol
K77M: -0.135 kcal/mol
E93T: -0.109 kcal/mol
L53T: 0.39 kcal/mol
A54L: 0.166 kcal/mol
D40G: 0.786 kcal/mol
Q10T: 0.0185 kcal/mol
V61D: 1.19 kcal/mol
D56Y: 0.415 kcal/mol
